Measured values from different studies.
Compare with care: the assays were run in different laboratories. Values joined by “and” are separate records of one study, mostly repeats; a detail may differ.
Partner: itself

ZIKV E ectodomain , dimer L107C/A264C/A319C, disulfide-stabilized (Zika virus)  subunits per oligomer (SEC, non-reducing SDS-PAGE): 2
LL-37 mature (Homo sapiens)  subunits per oligomer (native MS): 6 and 5
yadA fragment (Yersinia enterocolitica)  subunits per oligomer (SDS-PAGE): 3
dye-decolorizing peroxidase 29 PROSS mutations (Pseudomonas putida)  subunits per oligomer (SEC): 4
htrA mature (Borrelia burgdorferi)  subunits per oligomer (SEC; 20 °C): 3
gp7 virion capsid  subunits per oligomer (cryo-EM): 5
dnaB N-terminal deletion (Helicobacter pylori)  subunits per oligomer (SEC): 6
Epo-Fc Fc fusion, hinge-CH2-CH3, glycosylated (Mus musculus)  subunits per oligomer (SDS-PAGE Western blot): 2
HBV core protein Cp149 dimer (hepatitis B virus)  subunits per oligomer (resistive-pulse sensing): 108 dimers and 111 dimers
ITPR1 C2505A/C2513A/C2536A/C2542A (Homo sapiens)  subunits per oligomer (sucrose density gradient fractionation; lysate): 2
lef-3 (Helicoverpa armigera nucleopolyhedrovirus)  subunits per oligomer (crystal structure): 8
GUCY1B3 catalytic domain (Homo sapiens)  subunits per oligomer (native MS): 2 and 4
encapsulin shell protein empty shell (Streptomyces griseus)  subunits per oligomer (cryo-EM): 60 protomers
RcsB REC domain, BeF3- bound (Salmonella Typhimurium)  subunits per oligomer (crystal structure; added: BeF3-): 2
integrase fragment C23S/L112M/L135M/L162M/L163M/L188M/L189M, selenomethionine-labeled (Rous sarcoma virus)  subunits per oligomer (X-ray crystallography): 8
ITPR1 C2536A (Homo sapiens)  subunits per oligomer (sucrose density gradient fractionation; lysate): 2

Excerpt of the above:
ZIKV E ectodomain , dimer L107C/A264C/A319C, disulfide-stabilized (Zika virus)  subunits per oligomer (SEC, non-reducing SDS-PAGE): 2
htrA mature (Borrelia burgdorferi)  subunits per oligomer (SEC; 20 °C): 3
